Published values collected from several papers.
Parts stem from different laboratories: compare values within a part only. Positions count from the first letter of the parent shown.

Sample 1
Target: Interferon regulatory factor 7, full length, phosphomimetic (IRF7, Homo sapiens, UniProt Q92985, residues 1-503, S471D/S472D/S475D/S476D/S477D/S483D/S484D/S487D)
Chain of UniProt Q92985 (whole entry, unmodified, looked up): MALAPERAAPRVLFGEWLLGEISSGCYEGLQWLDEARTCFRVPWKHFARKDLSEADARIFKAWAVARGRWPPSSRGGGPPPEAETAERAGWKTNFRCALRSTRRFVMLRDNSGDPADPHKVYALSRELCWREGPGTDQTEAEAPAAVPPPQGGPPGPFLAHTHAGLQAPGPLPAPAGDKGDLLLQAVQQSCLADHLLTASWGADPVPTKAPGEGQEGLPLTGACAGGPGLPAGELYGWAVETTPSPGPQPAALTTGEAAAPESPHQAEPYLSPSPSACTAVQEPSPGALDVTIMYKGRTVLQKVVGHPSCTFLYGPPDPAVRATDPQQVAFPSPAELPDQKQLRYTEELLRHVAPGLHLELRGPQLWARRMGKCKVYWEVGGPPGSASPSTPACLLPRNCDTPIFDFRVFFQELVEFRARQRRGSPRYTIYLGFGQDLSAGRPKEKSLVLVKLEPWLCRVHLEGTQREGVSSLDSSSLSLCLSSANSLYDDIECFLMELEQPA
Technique: protein-binding microarray
Molecule type: double-stranded DNA, one strand shown
Sample: in vitro
Concentration: 2200 nM top
Notes: 60-bp whole probe
Added: salmon DNA 0.4 mg/ml
Reference: random background probes
Direction: higher = stronger binding
All sequences stand within: GCCTAGCAC … GTCTTGATTCGCTTGACGCTGCTG
Strand	fitted relative affinity
GACGGTATCGGACTGGGGAAGTGCTAG	-0.343 z-score
GACGGTATCGGTCTAGGGACGTGCTAG	0.0193 z-score
ATAGATATCGGGTATCGATTAGTGCTA	0.255 z-score
TTAGGACTGGGTTATCGGTTAGTGCTA	-0.185 z-score
TCACCTTTCAGTTTTCCACTGTGCTAG	4.18 z-score
GGAGGTCTGGATGTGCCGCGGTGCTAG	-1.11 z-score
GCCGGACTGGACTATCGGGACGTGCTA	-0.981 z-score
TTGTGTCTGGGCATTTTTTTAGTGCTA	-0.959 z-score
TTCTGTATGGGCATTTTTCTAGTGCTA	0.024 z-score
ATGGCTCTCTGGACTGTGTGTGTGCTA	0.11 z-score
TCACTTTTCACTTTACAACTGTGCTAG	5.8 z-score
TCAGGTATCCTTATCCTTTAGTGCTAG	1.25 z-score
TTAGGACTGCTTATCCTTTCGTGCTAG	0.884 z-score
GACGAACTGAGACTGAAGACGTGCTAG	-0.164 z-score
TCATTTTTATCAATCATACTGTGCTAG	1.3 z-score
GTAGGACTGGGTATCGGTTAGTGCTAG	-0.495 z-score
TCTCCTACAGGTTCTCTGAGAGTGCTA	0.592 z-score

Sample 2
Target: Fragile X messenger ribonucleoprotein 1, C-terminal low-complexity region (Fmr1, Mus musculus, UniProt P35922)
Technique: RNA Bind-n-Seq
Molecule type: RNA
Sample: in vitro
Concentration: 200 nM
Notes: whole 134-nt RNA, ends assumed
Added: 150 mM KCl
Reference: input library
Direction: higher = stronger binding
Strand	log2 enrichment
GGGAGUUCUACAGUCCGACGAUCCUCAAGUCCUGUGCUACACAUCGUAUGUACCGAAUCGGUGGUUUGGAAAAAGGAAAGUAUUAUGUUACGCCGUUCGGAUCUGCACUUCCAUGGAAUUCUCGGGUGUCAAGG	-0.132
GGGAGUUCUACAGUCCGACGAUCUUCAAGGAAAAACAAGAGGAGCAGGCUCGCCUCCUUGAUGAACUGGCAGGCAAGCUACAAAGCCUAGACCUUUCAGCCGCUGCCGAAAUGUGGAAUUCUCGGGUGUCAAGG	-1.36
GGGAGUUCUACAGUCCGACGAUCUCCUGUGCUACACAUCGUAUGUACCGAAUCGGGCCCCCCGGGCCCCCCGGGCCCCCCGGGAAAGUAUUAUGUUACGCCGUUCGGAUCUGCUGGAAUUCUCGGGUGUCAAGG	-0.317
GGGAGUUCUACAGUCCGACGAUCUGGGAGGUGGAUUUUGUUUAUUUUUUUAGCUCAUUUCCAGGGGUGGGAAUUUUUUUUUAAUAUUUGUCAUGAAUAAAGUUGUUUUUGAAAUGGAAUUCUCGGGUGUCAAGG	0.0958
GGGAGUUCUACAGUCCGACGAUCCAAGUCCUGUGCUACACAUCGUAUGUACCGAAUCGGGAAAGGAAAGGGGAAAGGGGAAAGUAUUAUGUUACGCCGUUCGGAUCUGCACUUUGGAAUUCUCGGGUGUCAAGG	0.451
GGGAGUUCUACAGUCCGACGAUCUGGCCCUGGUGGCACGCGGGGAGGAAGAGGUGGCCUCAUGGAUCGUGGUGGUCCCGGUGGAAUGUUCAGAGGUGGCCGUGGUGGAGACAGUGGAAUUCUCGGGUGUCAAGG	0.402
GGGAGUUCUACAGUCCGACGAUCUGGGAGGAGGAUUUUGUUUAUUUUUUUAGCUCAUUUCCAGGGGUGGGAAUUUUUUUUUAAUAUGUGUCAUGAAUAAAGUUGUUUUUGAAAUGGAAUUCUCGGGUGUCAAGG	-0.362
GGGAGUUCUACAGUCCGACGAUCUGGGAGGUGGAUUUUGUUUAUUUUUUUAGCUCAUUGCCAGGGGUGGGAAUUUUUUUUUAAUAUGUGUCAUGAAUAAAGUUGUUUUUGAAAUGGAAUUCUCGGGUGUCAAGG	0.15
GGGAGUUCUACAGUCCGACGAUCUCCUGUGCUACACAUCGUAUGUACCGAAUCGGGGAGGGGAAAAAAAGGGGAAAAAGGGGAAAGUAUUAUGUUACGCCGUUCGGAUCUGCAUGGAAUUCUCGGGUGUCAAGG	0.385
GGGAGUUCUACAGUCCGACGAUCUCAAGUCCUGUGCUACACAUCGUAUGUACCGAAUCGGGUGGGUUUGGGAAAGGGAAAGUAUUAUGUUACGCCGUUCGGAUCUGCACUUCCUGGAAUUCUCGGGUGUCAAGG	1.25

Sample 3
Target: Histone acetyltransferase KAT6A, winged helix 1, GST fusion (KAT6A, Homo sapiens, UniProt Q92794, residues 1-85)
Technique: protein binding microarray
Molecule type: double-stranded DNA, one strand shown
Sample: in vitro
Concentration: not given
Notes: 8-mer, flanks averaged, mean of 2 arrays, mostly near background
Reference: not given
Direction: higher = stronger binding
Residues (chain): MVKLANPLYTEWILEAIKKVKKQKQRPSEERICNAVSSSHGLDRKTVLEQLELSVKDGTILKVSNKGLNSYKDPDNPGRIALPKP
Strand	E-score
ACGAGATC	-0.137
TCCATTAA	-0.0276
GAGCACTC	-0.192
CAGATAAA	-0.105
TACGCCAA	-0.0676
AGCCAATG	-0.207
CCGCGCCG	0.452
GGAGTGGA	-0.0941
AGTAGTTA	-0.0174
CAATAGCG	0.162
GGATCGAC	-0.035
AGAGTTCG	-0.108
CCTTCGTC	-0.171
AGCTTGAT	-0.152
ACCCCAGT	-0.282
AGTCGCAT	0.065
GCTGGGAC	-0.12
CACCTTTA	-0.123
CAAGACTG	-0.229
GTCTCCAC	-0.0391
ACGGATAC	0.218
CGAGCTCA	0.0113
ACTGCCAT	-0.16
CTGGTTAA	-0.195
AGAACACA	-0.309

Sample 4
Target: ABI1, truncated, D143A, DHFR fusion (Arabidopsis thaliana)
Technique: DHFR PCA, deep sequencing
Sample: yeast
Notes: methotrexate growth selection, single substitutions
Added: (+)-ABA 710 µM
Reference: wild-type fitted maximum
Direction: higher = stronger binding
Parent: PYL1, truncated, DHFR fusion (Arabidopsis thaliana); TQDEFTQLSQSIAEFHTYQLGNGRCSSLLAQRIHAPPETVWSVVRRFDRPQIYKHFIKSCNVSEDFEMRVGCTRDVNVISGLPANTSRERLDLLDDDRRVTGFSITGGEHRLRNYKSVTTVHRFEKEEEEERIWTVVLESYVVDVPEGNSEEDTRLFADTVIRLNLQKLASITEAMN; partner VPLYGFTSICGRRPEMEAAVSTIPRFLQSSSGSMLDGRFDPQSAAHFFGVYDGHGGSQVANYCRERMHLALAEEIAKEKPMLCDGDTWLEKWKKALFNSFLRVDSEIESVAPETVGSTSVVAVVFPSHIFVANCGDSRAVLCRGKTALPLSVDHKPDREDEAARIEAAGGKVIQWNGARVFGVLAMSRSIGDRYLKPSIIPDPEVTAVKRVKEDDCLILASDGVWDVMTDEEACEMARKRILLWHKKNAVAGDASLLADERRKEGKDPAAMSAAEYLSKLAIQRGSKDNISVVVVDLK
Substitution	relative binding score [%]
I12F	85.1
W41E	-8.62
E130F	107
R90A	86.6
F56G	39.8
T101I	111
E109V	105
L169E	-14.9
Y18L	91.6
F56V	42.4
Q7H	99.6
S117A	88.2
A30T	103
D96V	72.3
V145W	46.8
Q2P	94.7
I57A	77.4
E147Q	103
G21R	100
F15K	70.1
S87P	19.8
K168Q	104
V43Q	94
F103H	68.3
S26A	98.1

Sample 5
Target: PABPC1L2, full length, GST fusion (mouse, UniProt A0ABA7IW68)
Technique: RNAcompete
Molecule type: RNA
Sample: in vitro
Concentration: 20 nM
Notes: 7-mer, probes averaged, single round
Reference: mean of 7-mers
Direction: higher = stronger binding
Residues (chain): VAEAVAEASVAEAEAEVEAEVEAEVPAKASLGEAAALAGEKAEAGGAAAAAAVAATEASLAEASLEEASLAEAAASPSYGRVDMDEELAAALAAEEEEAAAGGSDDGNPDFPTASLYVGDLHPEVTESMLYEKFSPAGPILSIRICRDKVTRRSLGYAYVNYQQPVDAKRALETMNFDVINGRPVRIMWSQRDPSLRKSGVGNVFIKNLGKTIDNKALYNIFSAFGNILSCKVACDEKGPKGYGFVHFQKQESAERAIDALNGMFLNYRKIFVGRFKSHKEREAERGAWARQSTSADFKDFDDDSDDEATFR
Strand	7-mer Z-score
AGGUUUU	-0.36
AUCCGCA	-0.249
UACGUUC	-0.383
CCCGAGG	-0.38
CCACUAU	-0.226
UCCUCCG	-0.298
AAUUACA	0.153
GGCCUUA	-0.206
AUCAUGC	-0.126
GUUACCA	-0.0373
CAAUUAA	0.245
ACAUUCC	-0.24
GUGAGUU	-0.345
UGUUUCA	-0.483
AUAGAUA	0.066
CCGUGGC	0.00617
AUAACGA	0.115

Single results of other studies
Substance	tested on	test	test system	setting	scale	measurement	result
PhoQ, residues 284 288 289 292 302 303 ASSHFY	PhoP, residues 12 14 15 18 19 LHHSG (Escherichia coli, UniProt P23836)	Sort-seq, refers to: YFP reporter	E. coli	PhoQ-PhoP variant library, added: 10 µM Mg2+	reference: high Mg2+ state, higher = stronger signaling	fold induction	13.2
GSPLAKAFTSTGL	Saccharomyces cerevisiae	peptide binding, yeast competitive growth sequencing	peptide, cyclin E2-Cln2 fusion	library 1	direction not given	enrichment score	0.257

Excerpt of the above (sample 2):
Strand	log2 enrichment
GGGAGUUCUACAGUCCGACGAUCCUCAAGUCCUGUGCUACACAUCGUAUGUACCGAAUCGGUGGUUUGGAAAAAGGAAAGUAUUAUGUUACGCCGUUCGGAUCUGCACUUCCAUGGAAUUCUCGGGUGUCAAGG	-0.132
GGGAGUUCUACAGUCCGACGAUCUUCAAGGAAAAACAAGAGGAGCAGGCUCGCCUCCUUGAUGAACUGGCAGGCAAGCUACAAAGCCUAGACCUUUCAGCCGCUGCCGAAAUGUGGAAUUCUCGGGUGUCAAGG	-1.36
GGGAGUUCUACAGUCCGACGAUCUCCUGUGCUACACAUCGUAUGUACCGAAUCGGGCCCCCCGGGCCCCCCGGGCCCCCCGGGAAAGUAUUAUGUUACGCCGUUCGGAUCUGCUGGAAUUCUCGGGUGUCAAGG	-0.317
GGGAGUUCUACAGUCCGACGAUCUGGGAGGUGGAUUUUGUUUAUUUUUUUAGCUCAUUUCCAGGGGUGGGAAUUUUUUUUUAAUAUUUGUCAUGAAUAAAGUUGUUUUUGAAAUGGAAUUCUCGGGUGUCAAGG	0.0958
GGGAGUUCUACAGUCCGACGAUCCAAGUCCUGUGCUACACAUCGUAUGUACCGAAUCGGGAAAGGAAAGGGGAAAGGGGAAAGUAUUAUGUUACGCCGUUCGGAUCUGCACUUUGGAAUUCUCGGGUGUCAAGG	0.451
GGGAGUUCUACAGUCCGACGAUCUGGCCCUGGUGGCACGCGGGGAGGAAGAGGUGGCCUCAUGGAUCGUGGUGGUCCCGGUGGAAUGUUCAGAGGUGGCCGUGGUGGAGACAGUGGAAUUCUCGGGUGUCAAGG	0.402
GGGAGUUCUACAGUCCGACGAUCUGGGAGGAGGAUUUUGUUUAUUUUUUUAGCUCAUUUCCAGGGGUGGGAAUUUUUUUUUAAUAUGUGUCAUGAAUAAAGUUGUUUUUGAAAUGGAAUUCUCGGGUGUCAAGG	-0.362
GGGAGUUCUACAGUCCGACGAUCUGGGAGGUGGAUUUUGUUUAUUUUUUUAGCUCAUUGCCAGGGGUGGGAAUUUUUUUUUAAUAUGUGUCAUGAAUAAAGUUGUUUUUGAAAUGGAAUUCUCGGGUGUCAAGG	0.15
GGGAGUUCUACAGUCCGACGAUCUCCUGUGCUACACAUCGUAUGUACCGAAUCGGGGAGGGGAAAAAAAGGGGAAAAAGGGGAAAGUAUUAUGUUACGCCGUUCGGAUCUGCAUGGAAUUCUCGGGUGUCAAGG	0.385
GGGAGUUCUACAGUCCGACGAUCUCAAGUCCUGUGCUACACAUCGUAUGUACCGAAUCGGGUGGGUUUGGGAAAGGGAAAGUAUUAUGUUACGCCGUUCGGAUCUGCACUUCCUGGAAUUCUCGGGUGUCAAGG	1.25
